Assay results of several laboratories.
± marks the error that the study gave.

Structure (SMILES)	tested on	test	test system	setting	how to read	endpoint	result
CC(C)[C@H](NC(=O)CNC(=O)[C@H](CCC(N)=O)NC(=O)[C@H](C)N)C(=O)O			human	30 mg/kg, 3 days, thrice daily dosing		subjects given concomitant medication	0%
CN[C@](C)(C[18F])C(=O)O	DU-145 tumour model		host not given, muscle	2 h, tumour-bearing		tracer uptake	1 %ID/g
COc1cc(NC(=O)C(=O)c2c(C)n(Cc3ccc(Cl)cc3)c3ccc(C)cc23)ccn1			male cynomolgus monkey, plasma	oral, 10 mg/kg		CL/F	55.3 mL/min/kg
CC[C@H](C)[C@H](NC(=O)CNC(=O)[C@@H](NC(=O)[C@H](Cc1ccc(O)cc1)NC(=O)[C@@H](NC(=O)[C@H](CO)NC(=O)[C@@H](NC(=O)[C@H](C)NC(=O)[C@@H]1CCCN1C(=O)[C@@H](NC(=O)[C@H](Cc1ccccc1)NC(=O)[C@H](CCCCN)NC(=O)[C@H](CCC(=O)O)NC(=O)[C@H](Cc1ccc(O)cc1)NC(=O)[C@H](CC(C)C)NC(=O)[C@H](CC(=O)O)NC(=O)[C@H](CCCNC(=N)N)NC(=O)[C@H](CC(C)C)NC(=O)[C@H](CCCCN)NC(=O)[C@H](CCC(=O)O)NC(=O)[C@H](Cc1ccccc1)NC(=O)[C@@H](NC(=O)[C@H](CCC(=O)O)NC(=O)[C@H](CCCCN)NC(=O)[C@H](CC(C)C)NC(=O)[C@H](Cc1ccc(O)cc1)NC(=O)[C@@H](N)CC(=O)O)C(C)C)[C@@H](C)O)C(C)C)[C@@H](C)O)[C@@H](C)O)C(=O)N[C@@H](Cc1ccccc1)C(=O)N[C@H](C(=O)N[C@@H](CC(=O)O)C(=O)N[C@@H](CCC(N)=O)C(=O)N[C@H](C(=O)N[C@@H](CC(C)C)C(=O)N[C@@H](CO)C(=O)N[C@H](C(=O)N[C@@H](CC(C)C)C(=O)N[C@@H](CCCCN)C(=O)NCC(=O)N[C@@H](CCC(=O)O)C(=O)N[C@@H](CCC(=O)O)C(=O)O)C(C)C)C(C)C)[C@@H](C)O			cynomolgus monkey	80 mg/kg	reference: 80 mg/kg over 8 mg/kg	clearance ratio	~4 fold
COc1cc2ccnc(Cc3ccc(O[11CH3])c(OC)c3)c2cc1OC		PET	rhesus macaque, putamen	intravenous, 3 min		peak SUV	~3.2
[3H]c1sc(C)nc1C=C(C)C1CC2C(CCCC(C)C(O)C(C)C(=O)C(C)(C)C(O)CC(=O)O1)N2CCO (centres unmarked)		whole-body autoradiography	CD2F1 mice, intestine contents	intravenous, 2.2 nmol/kg, 24 h		radioactivity in tissue	28.8 ± 26.6 µg-eq/g
C/C=C/C=C/C/C=C/CCCCCCCc1cccc(O)c1O			male Wistar rat, plasma	intravenous, 20 mg/kg		MRT	2.88 h
CC[C@@H]1C[C@]1(NC(=O)[C@@H]1C[C@@]2(CN1C(=O)[C@@H](NC(=O)[C@@H](NC(=O)[C@@H]1CCCCN1C(C)C)C1CCCCC1)C(C)(C)C)C(C)(C)C21CCC1)C(=O)NS(=O)(=O)N1CCCC1		measured: Pain	healthy human	oral, 10 mg, added: ritonavir 100 mg		subjects with adverse event	0%
CCCCCCCCC=CCCCCCCCC(=O)OCC1OC(n2ccc(N)nc2=O)C(F)(F)C1O (centres unmarked)			beagle dog, plasma	oral, dose not given		plasma concentration	not detected
[2H]C([2H])([2H])C([2H])([2H])C([2H])([2H])OC(C(=O)OC1CCNCC1)(c1ccccc1)c1ccccc1		measured: aspartate aminotransferase increased	healthy Japanese male	oral, 12 mg once daily, 16 days		adverse events	14.3%
C[C@]12CC[C@H](O)CC1CCC1C2[C@H](O)C(=O)[C@]2(C)[C@@H](c3ccc(=O)oc3)CC[C@]12O (some centres unmarked)		sulfation, substrate	rat liver cytosol	pH 7.4		CLint	0.14 µL/min/mg
CC[C@H](C)C(=O)N1CCC(NC(=O)Nc2ccc(OC(F)(F)F)c(F)c2)CC1			human	oral, 8 mg, fed, geometric LS mean		AUC(0-48 h)	2020 ng·h/mL
CCCCCCCCCCCCC(=O)O.O=C1CCCC2C3CCCN4CCCC(CN12)C34 (centres unmarked)		electrical conductivity	water	293.15 K		standard entropy of aggregation	108 J/(mol·K)
CC(CCC(=O)NCC(=O)O)C1CCC2C3CCC4CC(OC5OC(C(=O)O)C(O)C(O)C5O)CCC4(C)C3CC(O)C12C (centres unmarked)			human, SLCO1B1 *14/*14, plasma	geometric mean, sex-adjusted		plasma concentration	12.5 ng/mL
CC[C@H](C)[C@H](NC(=O)CN)C(=O)N[C@@H](CC(C)C)C(=O)N[C@@H](CCCCN)C(=O)N[C@@H](Cc1ccccc1)C(=O)N[C@@H](CC(C)C)C(=O)N[C@@H](CCC(=O)O)C(=O)N[C@@H](CO)C(=O)N[C@@H](C)C(=O)N[C@@H](CCCCN)C(=O)N[C@@H](CCCCN)C(=O)N[C@@H](Cc1c[nH]c2ccccc12)C(=O)N[C@@H](CC(C)C)C(=O)N[C@@H](CCC(=O)O)C(=O)N[C@@H](C)C(=O)N[C@@H](Cc1ccccc1)C(=O)N[C@@H](CC(C)C)C(=O)N[C@@H](C)C(=O)N[C@@H](CCC(=O)O)C(=O)N[C@H](C(=O)N[C@@H](CCSC)C(=O)N[C@@H](CC(N)=O)C(=O)N[C@@H](CO)C(=O)O)[C@@H](C)CC		circular dichroism	POPC vesicles 5 mM	20 µM, fully membrane bound		helicity	69%
CC(C)[C@@H]1NC(=O)[C@H](Cc2ccccc2)NC(=O)[C@H](Cc2ccc(O)cc2)NC(=O)CCSSC[C@@H](C(=O)N2CCC[C@H]2C(=O)N[C@H](CCCNC(=N)N)C(=O)NCC(N)=O)NC(=O)[C@H](CCC(N)=O)NC1=O			Wistar rat	intravenous, 1 µg/kg single dose, 72 h		body weight	225 ± 16.8 g
C=Cc1cc(O)cc2nc(-c3ccc(O)c([76Br])c3)oc12			female C57BL/6 mouse, spleen	1 h, high dose		tissue uptake	0.08 ± 0.03 %ID/g
COC(=O)C[C@](O)(CCCC(C)(C)OC(C)=O)C(=O)O[C@@H]1C(OC)=C[C@]23CCCN2CCc2cc4c(cc2[C@H]13)OCO4			CD1 mouse, pancreas	oral, 1 mg/kg, 8 h		tissue concentration	10.1 ng/mL
CSCC[C@@H]1NC(=O)[C@@H]2CSSC[C@H](NC(=O)[C@H](CO)NC(=O)[C@H](C)N)C(=O)N[C@@H](CCCNC(=N)N)C(=O)N[C@@H]([C@@H](C)O)C(=O)N3CCC[C@H]3C(=O)N[C@@H](CCCCN)C(=O)N[C@@H](CC(=O)O)C(=O)N[C@H]3CSSC[C@H](NC(=O)[C@H](CCCCN)NC(=O)[C@H](CCCNC(=N)N)NC(=O)[C@H](CC(N)=O)NC1=O)C(=O)N[C@@H](CCCCN)C(=O)N[C@H]1CSSC[C@H](NC(=O)[C@@H]4CCCN4C(=O)[C@H](CC(=O)O)NC(=O)[C@H](C)NC3=O)C(=O)N[C@@H](C)C(=O)N[C@@H](CCCCN)C(=O)N[C@@H](CCC(=O)O)C(=O)N[C@@H]([C@@H](C)O)C(=O)NCC(=O)N[C@@H](CSSC[C@@H](C(N)=O)NC(=O)[C@H](CCCNC(=N)N)NC(=O)[C@H](CC(N)=O)NC1=O)C(=O)N1CCC[C@H]1C(=O)N[C@@H](Cc1ccc(O)cc1)C(=O)NCC(=O)N[C@@H](CCCCN)C(=O)N2			DA rat pristane-induced arthritis, serum	subcutaneous, 0.1 mg/kg every other day, 21 days		Chloride	99.4 mmol/L
CC(C)C[C@H](NC(=O)[C@H](CCCCN)NC(=O)[C@H](CCC(=O)O)NC(=O)[C@H](C)NC(=O)[C@@H](NC(=O)[C@H](CCCCN)NC(=O)[C@H](CC(=O)O)NC(=O)[C@H](Cc1ccc(O)cc1)NC(=O)[C@H](Cc1ccccc1)NC(=O)[C@H](C)NC(=O)[C@H](CCCCN)NC(=O)[C@H](CC(C)C)NC(=O)[C@H](Cc1c[nH]c2ccccc12)NC(=O)[C@@H](N)CC(=O)O)C(C)C)C(=O)N[C@@H](CCCCN)C(=O)N[C@@H](CCC(=O)O)C(=O)N[C@@H](C)C(=O)N[C@@H](Cc1ccccc1)C(=O)N1CCC[C@H]1C(=O)N[C@@H](CC(=O)O)C(=O)N[C@@H](Cc1c[nH]c2ccccc12)C(=O)N[C@@H](C)C(=O)N[C@@H](CCCCN)C(=O)N[C@@H](C)C(=O)N[C@@H](C)C(=O)N[C@@H](Cc1ccc(O)cc1)C(=O)N[C@@H](CC(=O)O)C(=O)N[C@@H](CCCCN)C(=O)N[C@@H](C)C(=O)N[C@@H](C)C(=O)N[C@@H](CCC(=O)O)C(=O)N[C@@H](CCCCN)C(=O)N[C@@H](C)C(=O)N[C@@H](CCCCN)C(=O)N[C@@H](CCC(=O)O)C(=O)N[C@@H](C)C(=O)N[C@@H](C)C(=O)O			cynomolgus monkey female, plasma	intravenous infusion, 25 mg/kg every other day, day 27		half-life	6.2 h
CC(=O)c1cccc(-c2cccc(OC(=O)NC3CCCCC3)c2)c1			rat liver S9 fraction	added: NADPH-regenerating system		log hydrolysis rate constant	-1
CC(C)[C@H](NC(=O)CNC(=O)[C@H](CCC(N)=O)NC(=O)[C@H](C)N)C(=O)O			healthy male volunteers	intravenous, 45 mg/kg/h, 2 h, added: LPS 2 ng/kg		subjects given concomitant medication	12.5%
O=C(NCCCCCn1ccc2ccc(F)cc21)Oc1cccc(F)c1			porcine liver S9 fraction	20 µM, 30 min, added: BNPP 1 mM		parent remaining	79 ± 9%

For quick reference, copied from above:
Structure (SMILES)	tested on	test	test system	setting	how to read	endpoint	result
CC(=O)c1cccc(-c2cccc(OC(=O)NC3CCCCC3)c2)c1			rat liver S9 fraction	added: NADPH-regenerating system		log hydrolysis rate constant	-1
CC(C)[C@H](NC(=O)CNC(=O)[C@H](CCC(N)=O)NC(=O)[C@H](C)N)C(=O)O			healthy male volunteers	intravenous, 45 mg/kg/h, 2 h, added: LPS 2 ng/kg		subjects given concomitant medication	12.5%
O=C(NCCCCCn1ccc2ccc(F)cc21)Oc1cccc(F)c1			porcine liver S9 fraction	20 µM, 30 min, added: BNPP 1 mM		parent remaining	79 ± 9%
